Measured values pooled from the literature.
Values joined by “and” are separate records of one study, mostly repeats; a detail may differ. Numbers after ± are the reported error.
Proteasome component C5/PSMB5: Proteasome component C5/PSMB5 (Homo sapiens, UniProt P20618+P28074)
Sequence of UniProt P20618 (whole entry, looked up): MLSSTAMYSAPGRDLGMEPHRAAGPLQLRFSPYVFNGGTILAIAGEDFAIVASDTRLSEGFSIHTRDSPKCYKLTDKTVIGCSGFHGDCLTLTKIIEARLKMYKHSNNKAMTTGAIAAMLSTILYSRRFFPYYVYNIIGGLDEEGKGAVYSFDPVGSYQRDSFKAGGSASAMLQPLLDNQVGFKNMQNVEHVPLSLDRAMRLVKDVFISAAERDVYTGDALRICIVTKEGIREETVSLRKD
Sequence of UniProt P28074 (whole entry, looked up): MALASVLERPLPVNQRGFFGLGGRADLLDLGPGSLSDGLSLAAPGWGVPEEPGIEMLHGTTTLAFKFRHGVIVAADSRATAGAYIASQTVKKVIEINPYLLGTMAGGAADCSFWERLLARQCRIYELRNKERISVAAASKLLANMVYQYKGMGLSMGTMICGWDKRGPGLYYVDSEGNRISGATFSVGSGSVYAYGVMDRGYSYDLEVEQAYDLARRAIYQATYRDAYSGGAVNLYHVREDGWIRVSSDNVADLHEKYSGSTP
Sequence of UniProt P35499 (whole entry, looked up): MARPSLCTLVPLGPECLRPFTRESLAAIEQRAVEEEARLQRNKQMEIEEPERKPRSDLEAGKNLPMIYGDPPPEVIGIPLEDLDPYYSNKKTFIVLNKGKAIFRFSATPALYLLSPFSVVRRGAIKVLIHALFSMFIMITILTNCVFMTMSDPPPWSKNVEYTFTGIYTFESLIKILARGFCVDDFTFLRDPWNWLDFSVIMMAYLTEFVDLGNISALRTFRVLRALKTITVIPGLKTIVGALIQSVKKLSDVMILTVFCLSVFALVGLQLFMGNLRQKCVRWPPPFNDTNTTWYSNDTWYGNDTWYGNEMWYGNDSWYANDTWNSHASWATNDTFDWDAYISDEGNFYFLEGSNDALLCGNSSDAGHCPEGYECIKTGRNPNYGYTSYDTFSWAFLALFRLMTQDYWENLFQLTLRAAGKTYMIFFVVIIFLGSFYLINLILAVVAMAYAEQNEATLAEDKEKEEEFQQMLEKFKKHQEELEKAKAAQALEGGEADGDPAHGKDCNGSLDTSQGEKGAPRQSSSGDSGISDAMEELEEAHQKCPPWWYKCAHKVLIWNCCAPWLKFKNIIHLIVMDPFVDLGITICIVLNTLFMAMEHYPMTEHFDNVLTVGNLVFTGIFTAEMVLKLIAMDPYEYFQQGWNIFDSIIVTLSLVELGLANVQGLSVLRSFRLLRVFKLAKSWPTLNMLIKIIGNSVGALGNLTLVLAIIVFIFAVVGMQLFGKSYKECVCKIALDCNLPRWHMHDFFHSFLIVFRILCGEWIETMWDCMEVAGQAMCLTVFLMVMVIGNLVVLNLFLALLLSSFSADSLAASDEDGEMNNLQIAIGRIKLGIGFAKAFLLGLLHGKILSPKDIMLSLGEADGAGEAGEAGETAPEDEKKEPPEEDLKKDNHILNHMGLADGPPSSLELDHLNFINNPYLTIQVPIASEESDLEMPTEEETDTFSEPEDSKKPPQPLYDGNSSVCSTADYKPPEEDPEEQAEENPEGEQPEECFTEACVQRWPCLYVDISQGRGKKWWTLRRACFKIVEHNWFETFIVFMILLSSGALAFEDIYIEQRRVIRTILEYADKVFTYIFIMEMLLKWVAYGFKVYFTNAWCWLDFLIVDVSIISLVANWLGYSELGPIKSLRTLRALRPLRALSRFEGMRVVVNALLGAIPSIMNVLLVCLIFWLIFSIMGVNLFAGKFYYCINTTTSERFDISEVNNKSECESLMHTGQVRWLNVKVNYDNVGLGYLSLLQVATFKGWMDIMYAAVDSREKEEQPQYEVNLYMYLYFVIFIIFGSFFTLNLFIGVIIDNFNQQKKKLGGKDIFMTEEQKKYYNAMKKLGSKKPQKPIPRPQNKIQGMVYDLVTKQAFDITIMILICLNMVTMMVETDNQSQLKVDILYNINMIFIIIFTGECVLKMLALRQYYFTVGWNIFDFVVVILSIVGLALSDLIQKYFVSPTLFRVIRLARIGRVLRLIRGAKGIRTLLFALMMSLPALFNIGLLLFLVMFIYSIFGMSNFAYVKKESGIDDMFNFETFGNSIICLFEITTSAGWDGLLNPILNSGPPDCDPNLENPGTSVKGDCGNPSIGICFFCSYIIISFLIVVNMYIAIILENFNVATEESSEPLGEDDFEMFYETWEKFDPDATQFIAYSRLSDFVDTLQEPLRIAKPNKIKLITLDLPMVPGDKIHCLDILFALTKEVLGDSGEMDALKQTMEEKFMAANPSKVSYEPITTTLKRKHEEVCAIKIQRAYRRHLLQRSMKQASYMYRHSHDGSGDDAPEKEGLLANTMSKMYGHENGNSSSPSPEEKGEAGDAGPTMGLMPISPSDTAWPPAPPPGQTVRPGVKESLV
Sequence of UniProt P30550 (whole entry, looked up): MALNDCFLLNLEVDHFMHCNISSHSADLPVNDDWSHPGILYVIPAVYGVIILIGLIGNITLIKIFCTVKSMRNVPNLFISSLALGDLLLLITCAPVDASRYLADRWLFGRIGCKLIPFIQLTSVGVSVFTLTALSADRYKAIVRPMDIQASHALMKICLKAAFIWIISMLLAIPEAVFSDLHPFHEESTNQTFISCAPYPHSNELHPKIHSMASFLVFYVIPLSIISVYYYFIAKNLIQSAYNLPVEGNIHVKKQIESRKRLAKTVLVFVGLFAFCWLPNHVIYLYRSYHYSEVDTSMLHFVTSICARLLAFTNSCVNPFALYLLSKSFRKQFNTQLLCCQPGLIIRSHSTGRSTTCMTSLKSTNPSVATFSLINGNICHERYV
Sequence of UniProt Q00194 (whole entry, looked up): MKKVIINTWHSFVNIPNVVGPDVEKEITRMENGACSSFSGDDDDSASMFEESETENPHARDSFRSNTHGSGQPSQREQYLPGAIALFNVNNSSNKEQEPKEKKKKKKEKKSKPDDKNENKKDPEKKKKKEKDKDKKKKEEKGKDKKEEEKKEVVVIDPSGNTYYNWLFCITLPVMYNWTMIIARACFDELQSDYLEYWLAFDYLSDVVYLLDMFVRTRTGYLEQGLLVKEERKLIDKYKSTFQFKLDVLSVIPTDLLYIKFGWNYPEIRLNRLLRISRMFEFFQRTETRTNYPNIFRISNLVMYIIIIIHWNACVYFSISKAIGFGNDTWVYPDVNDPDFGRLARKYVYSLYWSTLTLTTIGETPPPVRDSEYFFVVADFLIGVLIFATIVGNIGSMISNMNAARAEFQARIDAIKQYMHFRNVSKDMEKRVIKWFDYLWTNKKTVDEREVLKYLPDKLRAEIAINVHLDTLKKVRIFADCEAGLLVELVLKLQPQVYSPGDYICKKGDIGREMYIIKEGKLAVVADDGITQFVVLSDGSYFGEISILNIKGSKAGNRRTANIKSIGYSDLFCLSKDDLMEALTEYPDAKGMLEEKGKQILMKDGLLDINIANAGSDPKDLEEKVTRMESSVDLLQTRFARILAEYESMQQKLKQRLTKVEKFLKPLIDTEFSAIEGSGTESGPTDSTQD
Sequence of UniProt Q9HC97 (whole entry, looked up): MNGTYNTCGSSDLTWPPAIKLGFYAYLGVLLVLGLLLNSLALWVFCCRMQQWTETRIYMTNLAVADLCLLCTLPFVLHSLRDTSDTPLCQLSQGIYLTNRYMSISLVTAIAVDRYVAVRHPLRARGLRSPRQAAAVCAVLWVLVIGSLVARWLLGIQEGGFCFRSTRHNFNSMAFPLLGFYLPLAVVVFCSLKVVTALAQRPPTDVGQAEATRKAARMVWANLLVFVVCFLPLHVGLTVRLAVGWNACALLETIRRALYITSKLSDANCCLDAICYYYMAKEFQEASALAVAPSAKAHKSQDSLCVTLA
Sequence of UniProt Q96HE7 (whole entry, looked up): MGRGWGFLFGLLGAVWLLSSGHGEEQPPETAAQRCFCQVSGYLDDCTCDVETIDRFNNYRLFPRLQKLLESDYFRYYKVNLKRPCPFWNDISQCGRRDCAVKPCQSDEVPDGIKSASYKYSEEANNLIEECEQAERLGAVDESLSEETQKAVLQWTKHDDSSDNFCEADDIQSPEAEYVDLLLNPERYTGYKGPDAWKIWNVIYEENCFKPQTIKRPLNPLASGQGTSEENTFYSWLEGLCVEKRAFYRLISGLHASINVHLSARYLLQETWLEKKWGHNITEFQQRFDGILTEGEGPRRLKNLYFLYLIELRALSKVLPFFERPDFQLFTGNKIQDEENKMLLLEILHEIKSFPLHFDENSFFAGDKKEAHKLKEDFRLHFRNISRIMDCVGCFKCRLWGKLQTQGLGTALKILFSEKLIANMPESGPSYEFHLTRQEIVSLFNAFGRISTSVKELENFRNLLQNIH
Sequence of UniProt Q9UH17 (whole entry, looked up): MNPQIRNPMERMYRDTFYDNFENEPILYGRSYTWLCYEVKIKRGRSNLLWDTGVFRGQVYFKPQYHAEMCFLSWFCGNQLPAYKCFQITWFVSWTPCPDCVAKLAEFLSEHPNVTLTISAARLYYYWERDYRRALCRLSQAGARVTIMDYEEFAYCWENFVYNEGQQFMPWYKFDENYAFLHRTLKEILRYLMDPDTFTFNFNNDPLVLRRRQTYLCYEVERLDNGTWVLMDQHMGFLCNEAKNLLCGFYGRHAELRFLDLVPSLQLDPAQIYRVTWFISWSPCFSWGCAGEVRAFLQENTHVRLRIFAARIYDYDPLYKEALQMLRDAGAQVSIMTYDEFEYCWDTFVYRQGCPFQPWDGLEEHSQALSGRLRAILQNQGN
Sequence of UniProt Q99685 (whole entry, looked up): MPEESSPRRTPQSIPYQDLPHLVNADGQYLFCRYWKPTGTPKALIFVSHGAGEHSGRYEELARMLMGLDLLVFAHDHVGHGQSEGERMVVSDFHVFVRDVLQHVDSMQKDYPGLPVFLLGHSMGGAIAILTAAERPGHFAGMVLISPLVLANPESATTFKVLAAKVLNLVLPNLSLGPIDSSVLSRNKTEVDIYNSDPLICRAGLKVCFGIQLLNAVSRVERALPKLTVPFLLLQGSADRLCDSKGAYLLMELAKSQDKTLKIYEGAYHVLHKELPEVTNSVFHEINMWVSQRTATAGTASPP

The IC50 of CC1=C(/C=C/C(C)=C/C=C/C(C)=C/C=C/C=O)C(C)(C)CCC1 is reported as 415 nM (CNGA1 (Bos taurus, UniProt Q00194); cGMP-activated current, inhibitor, inside-out patch clamp; Xenopus oocytes; 1 h steady state, +100 mV, together with: 2 mM cGMP).
With Cc1ccc(C(=O)Nc2ccc(CP(=O)(O)O)cc2CP(=O)(O)O)cc1NC(=O)c1cccc(NC(=O)Nc2cccc(C(=O)Nc3cc(C(=O)Nc4ccc(CP(=O)(O)O)cc4CP(=O)(O)O)ccc3C)c2)c1 the IC50 was roughly 7400 nM (F11 (Homo sapiens, UniProt P03951); enzyme activity, inhibitor, absorbance; pH 7.4).
For N=C(N)NCCC[C@@H]1NC(=O)[C@H](CCCCNC(=O)CNC(=O)CNC(=O)CNC(=O)CC[C@H](NC(=O)CNC(=O)CNC(=O)CNC(=O)CC[C@H](NC(=O)CN2CCN(CC(=O)O)CCN(CC(=O)O)CCN(CC(=O)O)CC2)C(=O)NCC(=O)NCC(=O)NCC(=O)N[C@@H](CCC(=O)NCC(=O)NCC(=O)NCC(=O)NCCCC[C@@H]2NC(=O)[C@@H](Cc3ccccc3)NC(=O)[C@H](CC(=O)O)NC(=O)CNC(=O)[C@H](CCCNC(=N)N)NC2=O)C(=O)NCC(=O)NCC(=O)NCC(=O)NCCCC[C@@H]2NC(=O)[C@@H](Cc3ccccc3)NC(=O)[C@H](CC(=O)O)NC(=O)CNC(=O)[C@H](CCCNC(=N)N)NC2=O)C(=O)NCC(=O)NCC(=O)NCC(=O)NCCCC[C@@H]2NC(=O)[C@@H](Cc3ccccc3)NC(=O)[C@H](CC(=O)O)NC(=O)CNC(=O)[C@H](CCCNC(=N)N)NC2=O)NC(=O)[C@@H](Cc2ccccc2)NC(=O)[C@H](CC(=O)O)NC(=O)CNC1=O [indium-111 labelled], the tissue uptake was 1.41 ± 0.29 %ID/g (female athymic nu/nu mice, bone; intravenous, 24 h).
O=S(=O)(Nc1cscn1)c1c(F)cc(NCc2c(F)ccc(F)c2CN2CCC2)cc1F has an IC50 of 20800 nM (SCN4A (Homo sapiens, UniProt P35499); sodium current, inhibitor, automated patch clamp; inactivated state protocol).
With O=C(N[C@@H](CC1CCCCC1)C(=O)N[C@@H](C[C@H]1CCNC1=O)C(=O)C(=O)NC1CC1)OCc1cccc(Cl)c1 the IC50 was 20 ± 10 nM (Genome polyprotein, 3C protease (rhinovirus B14, UniProt P03303); 3C protease activity, inhibitor, FRET).
The IC50 of CN(C)CCCNc1c2c(c(C#N)c3nc4ccccc4n13)CCC2 is reported as 9600 nM (ERO1-like protein alpha (Homo sapiens, UniProt Q96HE7); enzyme activity, inhibitor, fluorescence).
The IC50 of Cc1ccc(CNC(=O)[C@@H](NC(=O)[C@H](CCc2ccccc2)NC(=O)[C@@H](NC(=O)c2cnc(C)cn2)C(C)(C)C)C(C)C)cc1 is reported as 159 nM (Proteasome component C5/PSMB5; β5 activity, inhibitor; together with: Suc-LLVY-AMC, PA28α-activated).
For Cc1ccc(CNC(=O)C(CCc2ccccc2)NC(=O)C(NC(=O)Cc2cccc(Oc3ccccc3)c2)C(C)O)cc1 (centres unmarked), the IC50 was 470 nM and ~500 nM (Proteasome component C5/PSMB5; inhibitor).
The IC50 of CN1CCN(C(=O)CSc2nc(-c3ccc(Cl)cc3)cc(C(F)(F)F)c2C#N)CC1 is reported as 2500 nM (TAAR1 (Homo sapiens, UniProt Q96RJ0)).
The IC50 of CC(C)c1ccc(CN2CCN(CC(=O)c3ccc4[nH]c(=O)[nH]c4c3)CC2)cc1 is reported as 40000 nM (DNA dC->dU-editing enzyme APOBEC-3B (Homo sapiens, UniProt Q9UH17); enzyme activity, inhibitor; pH 5.5).
For CNC(=O)c1cc(C)ccc1NC(=O)c1ccc(-c2c(C)ccc3[nH]ncc23)c(C)c1, the IC50 was 160 nM (EPHA5 (Homo sapiens, UniProt P54756); target engagement in cells, BRET).
For O=C(NCCCCn1ccc2ccc(F)cc21)OC(C(F)(F)F)C(F)(F)F, the IC50 was 10000 nM (MGLL (Homo sapiens, UniProt Q99685); enzyme activity, inhibitor).
O=C(c1cccc(S(=O)(=O)N2CCc3ccccc3C2)c1)N1CCO[C@H](c2ccc(F)cc2)C1 has an IC50 of 3700 nM (KCNA2/KCNA1 (Homo sapiens, UniProt P16389+Q09470); potassium current, inhibitor, automated patch clamp; CHO-K1, concatemer expressing).
With COc1cc(CNC(=O)C[C@H](C)CCC=C(C)C)ccc1OCc1cn(-c2ccccc2[N+](=O)[O-])nn1 the growth percent was 78.1% (SF-268 CNS cancer cells; SRB; 10 µM, 48 h).
The IC50 of CCCC[C@H](NC(=O)[C@H](Cc1ccccc1)NC(=O)[C@H](Cc1c[nH]cn1)NC(=O)CCNC(=O)[C@@H](NC(=O)[C@H](C)NC(=O)[C@H](Cc1c[nH]c2ccccc12)NC(=O)[C@H](CC(N)=O)NC(=O)[C@@H](Cc1ccc(O)cc1)NC(=O)[C@@H](CO)NC(=O)[C@H](CO)NC(=O)[C@H](N)CO)C(C)C)C(N)=O is reported as 6.8 nM (GRPR (Homo sapiens, UniProt P30550); ligand displacement in cells, radioligand).
COc1cc(CNC(=O)C[C@H](C)CCC=C(C)C)ccc1OCc1cn(-c2cccc(C(F)(F)F)c2)nn1 has a growth percent of 111% (HCC 2998; SRB; 10 µM, 48 h).
Oc1cc(O)c2c(c1)OC(c1ccc(O)c(O)c1)C(OC1(c3ccc(O)c(O)c3)Oc3cc(O)cc(O)c3C(O)C1O)C2 (centres unmarked) has an IC50 of 65600 nM (GPR35 (Homo sapiens, UniProt Q9HC97); DMR desensitization; HT-29; with Tween-80 0.025%, together with: zaprinast).

Excerpt of the above:
O=S(=O)(Nc1cscn1)c1c(F)cc(NCc2c(F)ccc(F)c2CN2CCC2)cc1F has an IC50 of 20800 nM (SCN4A (Homo sapiens, UniProt P35499); sodium current, inhibitor, automated patch clamp; inactivated state protocol).
For N=C(N)NCCC[C@@H]1NC(=O)[C@H](CCCCNC(=O)CNC(=O)CNC(=O)CNC(=O)CC[C@H](NC(=O)CNC(=O)CNC(=O)CNC(=O)CC[C@H](NC(=O)CN2CCN(CC(=O)O)CCN(CC(=O)O)CCN(CC(=O)O)CC2)C(=O)NCC(=O)NCC(=O)NCC(=O)N[C@@H](CCC(=O)NCC(=O)NCC(=O)NCC(=O)NCCCC[C@@H]2NC(=O)[C@@H](Cc3ccccc3)NC(=O)[C@H](CC(=O)O)NC(=O)CNC(=O)[C@H](CCCNC(=N)N)NC2=O)C(=O)NCC(=O)NCC(=O)NCC(=O)NCCCC[C@@H]2NC(=O)[C@@H](Cc3ccccc3)NC(=O)[C@H](CC(=O)O)NC(=O)CNC(=O)[C@H](CCCNC(=N)N)NC2=O)C(=O)NCC(=O)NCC(=O)NCC(=O)NCCCC[C@@H]2NC(=O)[C@@H](Cc3ccccc3)NC(=O)[C@H](CC(=O)O)NC(=O)CNC(=O)[C@H](CCCNC(=N)N)NC2=O)NC(=O)[C@@H](Cc2ccccc2)NC(=O)[C@H](CC(=O)O)NC(=O)CNC1=O [indium-111 labelled], the tissue uptake was 1.41 ± 0.29 %ID/g (female athymic nu/nu mice, bone; intravenous, 24 h).
The IC50 of CN1CCN(C(=O)CSc2nc(-c3ccc(Cl)cc3)cc(C(F)(F)F)c2C#N)CC1 is reported as 2500 nM (TAAR1 (Homo sapiens, UniProt Q96RJ0)).
